Published values collected from several papers.
± gives the spread as reported.
Spike glycoprotein: Spike glycoprotein (Severe acute respiratory syndrome coronavirus 2, UniProt P0DTC2)
Sequence of UniProt Q6QIY3 (whole entry, looked up): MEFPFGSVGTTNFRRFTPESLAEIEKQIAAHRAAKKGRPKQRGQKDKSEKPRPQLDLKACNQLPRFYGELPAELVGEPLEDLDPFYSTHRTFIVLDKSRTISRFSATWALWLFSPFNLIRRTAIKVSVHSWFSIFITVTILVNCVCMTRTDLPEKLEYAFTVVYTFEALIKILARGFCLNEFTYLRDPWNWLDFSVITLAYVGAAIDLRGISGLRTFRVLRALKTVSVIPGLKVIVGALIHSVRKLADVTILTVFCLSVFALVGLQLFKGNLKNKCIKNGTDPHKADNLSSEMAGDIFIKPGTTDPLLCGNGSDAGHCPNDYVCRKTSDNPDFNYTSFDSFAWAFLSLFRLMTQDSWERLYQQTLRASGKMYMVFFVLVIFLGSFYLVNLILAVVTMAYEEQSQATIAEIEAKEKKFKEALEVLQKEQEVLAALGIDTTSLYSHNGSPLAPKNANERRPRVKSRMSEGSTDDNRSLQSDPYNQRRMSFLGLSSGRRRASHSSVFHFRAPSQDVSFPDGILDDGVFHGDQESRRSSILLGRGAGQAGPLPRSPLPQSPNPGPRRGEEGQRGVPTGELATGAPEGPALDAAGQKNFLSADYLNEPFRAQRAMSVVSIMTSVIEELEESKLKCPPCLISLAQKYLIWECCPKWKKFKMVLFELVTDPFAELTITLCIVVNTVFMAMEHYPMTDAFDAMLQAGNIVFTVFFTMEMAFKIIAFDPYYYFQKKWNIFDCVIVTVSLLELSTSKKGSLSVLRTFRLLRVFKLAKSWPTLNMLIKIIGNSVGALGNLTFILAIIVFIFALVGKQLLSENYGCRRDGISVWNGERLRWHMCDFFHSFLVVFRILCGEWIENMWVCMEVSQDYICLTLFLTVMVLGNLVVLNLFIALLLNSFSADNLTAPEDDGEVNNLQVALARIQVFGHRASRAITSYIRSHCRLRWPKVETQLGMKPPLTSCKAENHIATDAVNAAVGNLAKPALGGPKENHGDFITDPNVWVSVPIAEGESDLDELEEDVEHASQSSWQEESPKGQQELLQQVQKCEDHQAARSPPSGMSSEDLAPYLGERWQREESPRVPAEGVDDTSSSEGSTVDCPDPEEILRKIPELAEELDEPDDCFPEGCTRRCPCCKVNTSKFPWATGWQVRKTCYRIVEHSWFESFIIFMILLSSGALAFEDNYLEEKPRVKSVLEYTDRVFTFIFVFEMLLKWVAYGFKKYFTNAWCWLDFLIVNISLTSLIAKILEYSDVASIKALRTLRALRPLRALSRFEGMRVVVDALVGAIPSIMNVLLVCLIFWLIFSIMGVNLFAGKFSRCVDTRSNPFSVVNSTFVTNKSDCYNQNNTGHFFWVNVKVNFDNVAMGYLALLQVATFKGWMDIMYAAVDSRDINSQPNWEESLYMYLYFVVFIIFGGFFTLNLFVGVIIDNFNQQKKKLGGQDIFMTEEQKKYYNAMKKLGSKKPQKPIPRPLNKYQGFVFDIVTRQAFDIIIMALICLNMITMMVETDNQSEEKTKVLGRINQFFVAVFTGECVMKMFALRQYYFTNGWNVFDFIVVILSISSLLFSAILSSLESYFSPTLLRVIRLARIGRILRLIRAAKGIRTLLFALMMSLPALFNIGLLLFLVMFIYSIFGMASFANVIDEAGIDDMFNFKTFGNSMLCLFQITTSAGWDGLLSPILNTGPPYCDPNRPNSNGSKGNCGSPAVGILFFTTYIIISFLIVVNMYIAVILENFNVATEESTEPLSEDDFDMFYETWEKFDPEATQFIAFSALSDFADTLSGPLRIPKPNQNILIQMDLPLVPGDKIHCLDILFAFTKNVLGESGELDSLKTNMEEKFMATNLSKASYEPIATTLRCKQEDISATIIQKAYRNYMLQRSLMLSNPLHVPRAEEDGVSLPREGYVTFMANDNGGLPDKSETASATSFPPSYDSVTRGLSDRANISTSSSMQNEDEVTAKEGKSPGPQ
Sequence of UniProt P20813 (whole entry, looked up): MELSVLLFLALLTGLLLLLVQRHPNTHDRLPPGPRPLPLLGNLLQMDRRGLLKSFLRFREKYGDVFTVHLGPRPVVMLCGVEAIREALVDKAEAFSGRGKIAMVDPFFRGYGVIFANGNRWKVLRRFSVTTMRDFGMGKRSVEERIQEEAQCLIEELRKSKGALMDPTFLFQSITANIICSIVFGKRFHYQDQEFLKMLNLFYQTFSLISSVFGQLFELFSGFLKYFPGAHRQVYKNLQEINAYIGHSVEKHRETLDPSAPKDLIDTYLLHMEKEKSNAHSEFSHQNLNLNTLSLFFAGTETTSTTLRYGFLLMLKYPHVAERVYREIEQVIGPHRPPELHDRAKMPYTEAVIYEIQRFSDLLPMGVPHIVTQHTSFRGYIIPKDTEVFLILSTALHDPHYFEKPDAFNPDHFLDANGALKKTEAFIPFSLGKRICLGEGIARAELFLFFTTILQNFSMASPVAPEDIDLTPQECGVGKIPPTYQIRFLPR

CCC(C(=O)Nc1cc(NC2CCOCC2)ccc1C)n1cc(Br)cc2nc(SCc3ccc(F)cc3)nc1-2 (centres unmarked) has an IC50 of > 100000 nM (Replicase polyprotein 1ab, papain-like protease (rep, Middle East respiratory syndrome-related coronavirus, UniProt K9N7C7); enzyme activity, inhibitor).
The inhibition of Nc1ncnc2c([C@@H]3N[C@H](CO)[C@@H](O)[C@H]3O)c[nH]c12 is reported as 91.7% (Sudan ebolavirus; viral replication; HeLa, Boniface; 400 µM).
For CCC(CC)[C@H](NC(C)=O)[C@@H]1[C@H](O)[C@@H](C(=O)O)C[C@H]1N=C(N)N, the IC50 was 0.14 ± 0.01 nM (Neuraminidase (Influenza A virus, UniProt G9HX50); enzyme activity, inhibitor; swine influenza A virus, H3N2).
With CC(C)[C@H](NC(=O)[C@H](CCC(N)=O)NC(=O)[C@@H](N)CC(N)=O)C(=O)N[C@@H](CCCCN)C(=O)N[C@@H](Cc1ccccc1)C(=O)N[C@@H](Cc1ccc(O)cc1)C(=O)N[C@@H](Cc1ccccc1)C(=O)N[C@@H](CC(N)=O)C(=O)N[C@@H](CCCCN)C(=O)O the IC50 was 2.2 nM (HLA class I histocompatibility antigen, A alpha chain (Homo sapiens, UniProt P04439); biochemical).
The IC50 of CCC(C(=O)Nc1cc(NC2CCNCC2)ccc1C)n1cc(Cl)cc2nc(SCc3ccc(F)cc3)nc1-2 (centres unmarked) is reported as > 100000 nM (Replicase polyprotein 1ab, papain-like protease (rep, Middle East respiratory syndrome-related coronavirus, UniProt K9N7C7); enzyme activity, inhibitor).
For CC(C)[C@H](NC(=O)[C@H](CCCNC(=N)N)NC(=O)[C@H](CCCNC(=N)N)NC(=O)[C@H](Cc1ccccc1)NC(=O)[C@H](CCC(=O)O)NC(=O)[C@@H](N)Cc1ccc(O)cc1)C(=O)N[C@@H](CCCCN)C(=O)N[C@@H](CO)C(=O)N[C@@H](Cc1ccc(O)cc1)C(=O)O, the IC50 was 14 nM (HLA class I histocompatibility antigen, B alpha chain, allele B*44:03 (Homo sapiens, UniProt P01889); biochemical).
CCC(C(=O)Nc1cc(NC2COC2)ccc1C)n1cc(F)cc2nc(SCc3ccc(F)cc3)nc1-2 (centres unmarked) gave an IC50 of > 100000 nM (Replicase polyprotein 1ab, papain-like protease (rep, Middle East respiratory syndrome-related coronavirus, UniProt K9N7C7); enzyme activity, inhibitor).
With O=c1c(O)c(-c2ccc(O)cc2)oc2cc(O)cc(O)c12 the Kd was 33300 nM (Spike glycoprotein; binding, biolayer interferometry).
With CC(=O)N[C@H]1[C@H]([C@H](O)[C@H](O)CO)OC(C(=O)O)=C[C@@H]1N=C(N)N the IC50 was 0.61 nM (neuraminidase (Influenza A virus, UniProt A0A088CBR8); concentration not given).
CC[C@H](C)[C@H](NC(=O)[C@H](Cc1ccccc1)NC(=O)[C@@H]1CCCN1C(=O)[C@H](Cc1c[nH]cn1)NC(=O)[C@H](CC(N)=O)NC(=O)[C@@H](NC(=O)[C@H](Cc1ccc(O)cc1)NC(=O)[C@@H](N)C(C)C)[C@@H](C)CC)C(=O)N[C@@H](Cc1ccc(O)cc1)C(=O)O gave an IC50 of 6.5 nM (HLA class I histocompatibility antigen, A alpha chain, allele A*29:02 (Homo sapiens, UniProt P04439); biochemical).
Under “subjects with hypoglycaemia”, CC[C@H](C)[C@H](NC(=O)[C@H](CC(C)C)NC(=O)[C@H](Cc1c[nH]c2ccccc12)NC(=O)[C@H](CCC(N)=O)NC(=O)[C@@H](NC(=O)[C@H](Cc1ccccc1)NC(=O)[C@H](C)NC(=O)[C@H](CCCCNC(=O)COCCOCCNC(=O)COCCOCCNC(=O)CC[C@H](NC(=O)CCCCCCCCCCCCCCCCCCC(=O)O)C(=O)O)NC(=O)[C@H](CCC(N)=O)NC(=O)[C@H](C)NC(=O)[C@@H](NC(=O)[C@H](CCCCN)NC(=O)[C@H](CC(=O)O)NC(=O)[C@H](CC(C)C)NC(=O)C(C)(C)NC(=O)[C@@H](NC(=O)[C@H](CO)NC(=O)[C@H](Cc1ccc(O)cc1)NC(=O)[C@H](CC(=O)O)NC(=O)[C@H](CO)NC(=O)[C@@H](NC(=O)[C@H](Cc1ccccc1)NC(=O)[C@@H](NC(=O)CNC(=O)[C@H](CCC(=O)O)NC(=O)C(C)(C)NC(=O)[C@@H](N)Cc1ccc(O)cc1)[C@@H](C)O)[C@@H](C)O)[C@@H](C)CC)[C@@H](C)CC)C(C)C)C(=O)N[C@@H](C)C(=O)NCC(=O)NCC(=O)N1CCC[C@H]1C(=O)N[C@@H](CO)C(=O)N[C@@H](CO)C(=O)NCC(=O)N[C@@H](C)C(=O)N1CCC[C@H]1C(=O)N1CCC[C@H]1C(=O)N1CCC[C@H]1C(=O)N[C@@H](CO)C(N)=O is recorded as 33.3% (measured: blood glucose ≤70 mg/dL; healthy subjects; 4.5 mg, multiple ascending dose).
With CCC(C(=O)Nc1cc(NC2COC2)ccc1C)n1cccc2nc(SCc3ccc(F)cc3)nc1-2 (centres unmarked) the IC50 was 361 ± 39 nM (Replicase polyprotein 1ab, papain-like protease (rep, Severe acute respiratory syndrome-related coronavirus, UniProt P0C6X7); enzyme activity).
For Cn1cnc(Cn2c(=O)[nH]/c(=N\c3cc4cn(C)nc4cc3Cl)n(Cc3cc(F)c(F)cc3F)c2=O)n1, “patients with adverse event” read 0% (human, moderate renal impairment; oral, 375 mg, treatment-related dry mouth, Moderate severity).
Cn1cnc(Cn2c(=O)[nH]/c(=N\c3cc4cn(C)nc4cc3Cl)n(Cc3cc(F)c(F)cc3F)c2=O)n1 gave an IC50 of > 100000 nM (Cytochrome P450 2B6 (CYP2B6, Homo sapiens, UniProt P20813); inhibitor; human liver microsomes; 30 min preincubation, preincubation with NADPH, added: efavirenz 5 µM).
With CCCCCc1cc(O)c(C/C=C(\C)CCC=C(C)C)c(O)c1 the IC50 was ~5000 nM (Scn10a (Mus musculus, UniProt Q6QIY3); ion current, inhibitor, patch clamp).
With CC(C)CCN[C@H]1[C@H]([C@H](O)[C@H](O)CO)OC(C(=O)O)=C[C@@H]1O the IC50 was > 500000 nM (Sialidase (nanI, Clostridium perfringens, UniProt A0A0H2YQR1); enzyme activity, inhibitor).
O=c1c(O)c(-c2ccc(O)cc2O)oc2cc(O)cc(O)c12 has a Kd of 72700 nM (Spike glycoprotein; binding, biolayer interferometry).
The IC50 of CCc1c(C(=O)C(N)=O)c2c(OCC(=O)O)cccc2n1Cc1ccccc1 is reported as 298 nM (Daboia russelii venom PLA2; enzyme activity, inhibitor; venom from West Bengal, added: NOB substrate).
CCC(CC)O[C@@H]1C=C(C(=O)O)C[C@H](N)[C@H]1NC(C)=O gave an IC50 of 0.17 nM (Neuraminidase (Influenza A virus, UniProt L0MUX9); enzyme activity, inhibitor; swine influenza A virus, N2 subtypes average).
CCC(C(=O)Nc1cnn(C)c1)n1cccc2nc(SCc3ccc(F)cc3)nc1-2 (centres unmarked) gave an IC50 of > 100000 nM (Replicase polyprotein 1ab, papain-like protease (rep, Middle East respiratory syndrome-related coronavirus, UniProt K9N7C7); enzyme activity, inhibitor).

Some of these lines once more:
CC[C@H](C)[C@H](NC(=O)[C@H](Cc1ccccc1)NC(=O)[C@@H]1CCCN1C(=O)[C@H](Cc1c[nH]cn1)NC(=O)[C@H](CC(N)=O)NC(=O)[C@@H](NC(=O)[C@H](Cc1ccc(O)cc1)NC(=O)[C@@H](N)C(C)C)[C@@H](C)CC)C(=O)N[C@@H](Cc1ccc(O)cc1)C(=O)O gave an IC50 of 6.5 nM (HLA class I histocompatibility antigen, A alpha chain, allele A*29:02 (Homo sapiens, UniProt P04439); biochemical).
